Experimental data from different studies.
Each line is one published result; not all experiments were run side by side.

C=C1[C@H](O)CC(=C/C=C2\CCC[C@]3(C)[C@@H]([C@@H](C)CCCCO)CC[C@@H]23)C[C@H]1O  EC50 (rat osteosarcoma cells; reporter gene, activator, luciferase, measured: CYP24A1 (24-hydroxylase) promoter; 50% increase): 0.5 nM
FC(F)(F)c1ccnc(-c2cc(C(F)(F)F)ccn2)c1.FC(F)(F)c1ccnc(-c2cc(C(F)(F)F)ccn2)c1.[Cl-].[Cl-].[Ru+2].c1csc(-c2ccc(-c3ccc(-c4nc5c6cccnc6c6ncccc6c5[nH]4)s3)s2)c1  EC50 (SK-MEL-28; cell viability, resazurin; visible light, normoxia, mean replicates): 440 nM
CSCc1ccccn1.F[P-](F)(F)(F)(F)F.F[P-](F)(F)(F)(F)F.[Ru+2].c1ccc(-c2ccccn2)nc1.c1ccc(-c2ccnc3c2ccc2c(-c4ccccc4)ccnc23)cc1  EC50 (A549 spheroids; viability, CellTiter-Glo 3D; dark): 173000 nM
CC(C)c1cnc(-c2cc(Cl)ccc2F)cc1Nc1ccncc1C(=O)NC(CO)CO  EC50 (expanded human pan T cells; reversal of TGF-β IL-2 suppression; unbound drug, with: TGF-β): 12 nM
CCCC[C@@H](C)[C@H]1CC[C@H]2/C(=C/C=C3C[C@@H](O)C(C)[C@H](O)C3)CCC[C@]12C (stereo partly drawn)  EC50 (rat osteosarcoma cells; reporter gene, activator, luciferase, measured: CYP24A1 (24-hydroxylase) promoter; 50% increase): 50 nM
O=c1c(-c2cccnc2)c[nH]n1-c1ccc(CO)cn1  EC50 (A549 HRE-luciferase reporter; HIF reporter gene, activator): 13400 nM
C(=C/c1ccccc1)/c1ccccc1  EC50 (KG-1a; apoptosis, Hoechst nuclear staining; 24 h): 350000 nM
CC(C)C[C@H](NC(=O)[C@H](CO)NC(=O)[C@H](C)NC(=O)[C@@H]1CCCN1C(=O)[C@H](Cc1c[nH]c2ccccc12)NC(=O)[C@H](CS)NC(=O)[C@H](CCC(=O)O)NC(=O)[C@H](CC(=O)O)NC(=O)[C@H](CC(N)=O)NC(=O)[C@H](CC(C)C)NC(=O)[C@@H](NC(=O)[C@H](CO)NC(=O)CNC(=O)[C@H](CO)NC(=O)CNC(=O)[C@H](C)NC(=O)[C@H](C)NC(=O)CNC(=O)[C@H](CCC(=O)O)NC(=O)[C@H](CO)NC(=O)[C@@H]1CCCN1C(=O)[C@H](CC(C)C)NC(=O)[C@H](Cc1ccccc1)NC(=O)[C@H](CCC(N)=O)NC(=O)[C@H](CCC(=O)O)NC(=O)[C@H](CCCNC(=N)N)NC(=O)[C@H](CO)NC(=O)[C@@H](NC(=O)[C@H](C)NC(=O)[C@H](C)N)[C@@H](C)O)[C@@H](C)O)C(=O)O  EC50 (MELOE-1 36-44 specific CD8 T cell clone; TNFα production; cross-presentation, with: mature dendritic cells): 430 nM
O=C(O)c1ccc(-n2[nH]cc(-c3cccnc3)c2=O)nc1  EC50 (A549 HRE-luciferase reporter; HIF reporter gene, activator): > 20000 nM
FC(F)(F)c1ccnc(-c2cc(C(F)(F)F)ccn2)c1.FC(F)(F)c1ccnc(-c2cc(C(F)(F)F)ccn2)c1.[Cl-].[Cl-].[Ru+2].c1csc(-c2ccc(-c3ccc(-c4ccc(-c5nc6c7cccnc7c7ncccc7c6[nH]5)s4)s3)s2)c1  EC50 (SK-MEL-28; cell viability; normoxia, with: red light 633 nm): 2200 nM
Cc1cc(Nc2ccc(NC(=O)c3ccc(Nc4cc(C)nc(N)n4)cc3)cc2)nc(N)n1  EC50 (KG-1; cell proliferation; 3 days, 15 % fetal calf serum): > 10000 nM
C=C1[C@H](O)CC(=C/C=C2\CCC[C@]3(C)[C@@H]([C@H](C)CCCC)CC[C@@H]23)C[C@H]1O  EC50 (rat osteosarcoma cells; reporter gene, activator, luciferase, measured: CYP24A1 (24-hydroxylase) promoter; 50% increase): 40 nM

Some of these lines once more:
FC(F)(F)c1ccnc(-c2cc(C(F)(F)F)ccn2)c1.FC(F)(F)c1ccnc(-c2cc(C(F)(F)F)ccn2)c1.[Cl-].[Cl-].[Ru+2].c1csc(-c2ccc(-c3ccc(-c4nc5c6cccnc6c6ncccc6c5[nH]4)s3)s2)c1  EC50 (SK-MEL-28; cell viability, resazurin; visible light, normoxia, mean replicates): 440 nM
CSCc1ccccn1.F[P-](F)(F)(F)(F)F.F[P-](F)(F)(F)(F)F.[Ru+2].c1ccc(-c2ccccn2)nc1.c1ccc(-c2ccnc3c2ccc2c(-c4ccccc4)ccnc23)cc1  EC50 (A549 spheroids; viability, CellTiter-Glo 3D; dark): 173000 nM
